# Measurements of several laboratories.
# Every numbered part comes from another study and shows a few of its results, in no order.

# Sample 1 — technique: RNA Bind-n-Seq; form: RNA; medium: in vitro; tested at: 200 nM; notes: whole 134-nt RNA, ends assumed; added: 150 mM LiCl; reference: input library; reading: higher = stronger binding; all molecules: 7-deaza-guanosine replaces G
# Target: Fragile X messenger ribonucleoprotein 1, C-terminal low-complexity region (Fmr1, Mus musculus, UniProt P35922)
# Shared flanks, not repeated: GGGAGUUCUACAGUCCGACGAUC … UGGAAUUCUCGGGUGUCAAGG
Oligonucleotide,log2 enrichment
UUUUCUUCUGGGGCAUUUAUCCGUGCUGAUCUUGGUGAAUGGGGCAUGAGUCUAACGAUCAGAGCCCCUAGUGUAGAUUACAGAAACACU,-0.985
GUCCUGUGCUACACAUCGUAUGUACCGAAUCGGAAAAAGGGGAAAAAGGGAAAAAGGGGAAAGUAUUAUGUUACGCCGUUCGGAUCUGCA,0.541
CAAGUCCUGUGCUACACAUCGUAUGUACCGAAUCGGGGAAAGGGAAAGGAAAGGGAAAGUAUUAUGUUACGCCGUUCGGAUCUGCACUUC,-0.487
UCCUGUGCUACACAUCGUAUGUACCGAAUCGGAAAAAAAGGAAAAAAAGGUUUUUUUGGAAAGUAUUAUGUUACGCCGUUCGGAUCUGCA,-2.09
GCAGGAAGUAAAAACAAAUGGUAAUGCUUCGGAUAGUGGCAGGGGUGGGGGUUGCUAAGGAAAGGGUGGGAUGGGAGUGGGUAAAGAGUU,1.39
UAACUUUAGAGGAGGGUCUGAUGGAUAUGGCAGUGGACGUGGAUUUGGGGAUGGCUAUAAUGGGUAUGGAGGAGGACCUGGAGGUGGCAA,0.232
AAGUCCUGUGCUACACAUCGUAUGUACCGAAUCAAACCCCCAAAUUUAAAUUUAAAAAAGUAUUAUGUUACGCCGUUCGGAUCUGCACUU,0.634
UUAGAAGAAGAAGAUGGAGUGUGGGAGAAUGGACUUUCCUAUGAAUGCCGUACUCUGCUUUUCAAAGCAGUUCACAAUCUAUUGGAACGG,-3.42
UGUGCUACACAUCGUAUGUACCGAAUCGGGGUUUUUUUGGGGAAAAAAAGGGGUUUUUGGGGAAAGUAUUAUGUUACGCCGUUCGGAUCU,-2.47
CACAGACAACACGCACCCACACAGACAUAGAGGGAAGGGGUUGGGAUGGGGACAGGGUGCACAGCAGGGCGGGGUAGGACCCCAGCCCCU,0.311
UCCUGUGCUACACAUCGUAUGUACCGAAUCGGGAAAAAAGGAAAAAAGGGAAAAAAGGGGAAAGUAUUAUGUUACGCCGUUCGGAUCUGC,-0.898

# Sample 2 — technique: universal PBM; form: double-stranded DNA, one strand shown; medium: in vitro; tested at: 600 nM; reading: higher = stronger binding
# Target: Sal-like protein 4, full length isoform A (SALL4, Homo sapiens, UniProt Q9UJQ4, residues 1-1053)
# Sequence of UniProt Q9UJQ4 (whole entry, looked up): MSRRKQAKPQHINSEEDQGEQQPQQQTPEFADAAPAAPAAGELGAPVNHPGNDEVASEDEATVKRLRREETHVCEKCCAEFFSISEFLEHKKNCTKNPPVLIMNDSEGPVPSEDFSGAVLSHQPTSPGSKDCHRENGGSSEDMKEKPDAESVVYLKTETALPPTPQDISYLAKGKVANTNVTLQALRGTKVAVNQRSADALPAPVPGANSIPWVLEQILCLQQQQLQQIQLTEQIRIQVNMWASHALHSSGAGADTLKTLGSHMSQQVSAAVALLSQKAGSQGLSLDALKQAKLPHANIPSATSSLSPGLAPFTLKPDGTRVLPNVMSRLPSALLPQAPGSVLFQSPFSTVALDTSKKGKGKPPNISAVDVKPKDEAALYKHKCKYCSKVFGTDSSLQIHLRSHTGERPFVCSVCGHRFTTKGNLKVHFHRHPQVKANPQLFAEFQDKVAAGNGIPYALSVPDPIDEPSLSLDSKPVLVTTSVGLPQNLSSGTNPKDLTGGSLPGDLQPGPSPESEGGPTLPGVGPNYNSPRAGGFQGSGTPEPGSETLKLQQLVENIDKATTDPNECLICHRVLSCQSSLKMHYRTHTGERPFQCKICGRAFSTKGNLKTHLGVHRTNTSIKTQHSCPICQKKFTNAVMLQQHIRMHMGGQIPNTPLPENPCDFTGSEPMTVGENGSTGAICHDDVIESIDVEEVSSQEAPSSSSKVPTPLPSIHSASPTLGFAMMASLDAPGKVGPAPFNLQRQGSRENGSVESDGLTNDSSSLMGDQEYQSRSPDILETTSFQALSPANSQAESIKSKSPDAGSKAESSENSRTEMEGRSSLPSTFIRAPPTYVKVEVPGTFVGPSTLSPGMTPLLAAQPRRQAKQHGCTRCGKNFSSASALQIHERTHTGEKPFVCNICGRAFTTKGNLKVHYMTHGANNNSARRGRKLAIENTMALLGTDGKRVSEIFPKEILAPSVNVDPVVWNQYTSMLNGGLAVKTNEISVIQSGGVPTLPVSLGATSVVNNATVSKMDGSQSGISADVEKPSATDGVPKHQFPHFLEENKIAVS
# Notes: 8-mer, flanks averaged, mean of replicates
Oligonucleotide,E-score
CTACCGGC,-0.331
CGACATAC,-0.0607
AACATGTC,0.0444
TGTCAGAA,0.109
CGAGTATA,0.221
GTGGTAAC,0.0935
ACTATAGA,0.253
AACTAGCT,0.016
GCGCTTAC,-0.188
CGCGCGTC,-0.181
ACCCCTCG,-0.256
AGGCTGTC,-0.226
GGAAACTA,-0.131
CCCTAAGC,-0.214
GAGTGGTA,-0.0855
AGTTCGTG,-0.0855
CGTTGTAG,-0.00487
AATGGATG,0.147
ACACGTAA,0.225
CCGCTTAA,-0.0814
ACTTCACA,0.107
AAAGGCCT,-0.169
CAACCATC,-0.085
CATAAGCC,0.165
CGTAGAAA,0.158

# Sample 3 — technique: protein-binding microarray; form: double-stranded DNA, one strand shown; medium: in vitro; tested at: 0.8 µM; notes: whole 60-bp probe, no competitor; reading: higher = stronger binding; shared flanks, not repeated: … GTCTTGATTCGCTTGACGCTGCTG
# Target: Centromere-binding protein 1, full length, N-terminal tag (CBF1, Saccharomyces cerevisiae, UniProt P17106, residues 1-351)
# Sequence of UniProt P17106 (whole entry, looked up): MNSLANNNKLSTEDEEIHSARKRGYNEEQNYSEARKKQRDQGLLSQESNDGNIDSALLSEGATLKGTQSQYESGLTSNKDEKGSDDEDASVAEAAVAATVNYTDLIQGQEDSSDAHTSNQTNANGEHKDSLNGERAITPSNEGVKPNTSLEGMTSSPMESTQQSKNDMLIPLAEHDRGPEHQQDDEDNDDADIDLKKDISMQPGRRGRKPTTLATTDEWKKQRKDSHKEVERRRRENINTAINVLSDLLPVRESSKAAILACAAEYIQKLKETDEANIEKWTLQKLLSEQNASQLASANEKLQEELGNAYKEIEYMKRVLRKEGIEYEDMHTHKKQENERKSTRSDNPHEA
Oligonucleotide,fluorescence intensity [a.u.]
CTATTAGGAAAATGCCTCATGACGGTATCTGGGTTC,521
GAAAATTGCTAAGCACACATGACTTCATACTTGTAG,1090
GAATTTATGATTGCTCGAATCACGTTTTTCTTGTAG,2150
CTAATTATCTAACATCAGATGGTTTGTCTTTCATTC,591
CTACTCTGCTGATTGGACGTGGGGTCGTACTATTTC,538
TGTACGAAGCTATGCCACGTGACTATAGTAGTTAGG,17000
GAATGAGTAAATTTGAAGGTGGTGCACAAAGTCTAG,523
CTAAAGAGTTAACTTCACGCGGGTAAATCACTTTTC,534
CTAAGACGTTGGAAACACGCAACGTCTTTTTTGTTC,526
GAAGAACGTAGTATCCACATGCCATCCTCCTTGTAG,523
GAATTCATCGTCGATCATGATGATTATCAGCCGTAG,530
CTATATGATATCGCTAGCATGATGTTAGTGTTTTTC,506
CTAATTTCTTTTCATCACGTGCTATAAAAATAATTC,20100
GAAACTCCATCCTCAATCGTGATTGTGCGTGCGTAG,508
TGTACGAAGCTATACACGTGTACTATAGTAGTTAGG,5150
GAAAGCTGGTGTGGACATGACGCTTTATCTTTTTAG,537
GAACTATGAGCCGTCCACGTTTCCAAAAAAACCTAG,651
GAATATGGAAAGCTTACGCTGATGTAAGTAATGTAG,493
GAATAGAATTTTTTCCACGCGCTCTCGATCAATTAG,574
GAAGTGTGTCCCACACTCGTGGCACGTTTTCTTTAG,1040
CCTAACTACTATAATCATCATGCATAGCTTCGTACA,527
GAATAGTAGGTATACGTGACAAATATAAGCGTATAG,905
CTACGCTGATATCTGCACATGTGAGTAACGCAGTTC,1330
GAAATATATTATAATCACGTCTTCCTCCTTTTTTAG,720

# Sample 4 — technique: RNA Bind-n-Seq; form: RNA; medium: in vitro; tested at: 365 nM; reference: no-protein control; reading: higher = stronger binding
# Target: RNA binding protein fox-1 homolog 2, RRM domain, GST-SBP tag (RBFOX2, Homo sapiens, UniProt O43251-10, residues 100-194)
# Notes: natural RNA segment, single round, ends assumed
# Shared flanks, not repeated: GGGAGUUCUACAGUCCGACGAUC … UGGAAUUCUCGGGUGCCAA
# Construct (chain): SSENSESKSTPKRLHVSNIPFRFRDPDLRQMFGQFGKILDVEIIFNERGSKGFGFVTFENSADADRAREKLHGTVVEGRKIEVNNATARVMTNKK
Oligonucleotide,RBNS enrichment (R)
UGGAGAGUGGGGAGAGGCACUUAAUCUGUAACCCCCAAGGAGGAAAUAACUAAGAGAUUCUUCUAGGGGUAGCUGGUGGUUGUGCCUUUUGUAGGCUGUUCCCUUUGCCU,0.463
CUUCUCCAUGUAGUUCCUCUCCUACAAGCCAGGUGGAUUCUGGUCCUAACUAAAGAGAUGGGAGUUCACCUGAGGGCAAGAAGUACCCAGGAUGCCCAAACAGCCGCACA,0.291
ACAAGAGCAAAACUCCGUCUCAAAAAAAAAAAAAAGAUACAAAGUCUGCAUUUGAUAUAAUGCCUUAAUUACUGGGUCUACAAUUAAUGUUGACUGUUUUAGAUUGUAAG,0.527
CCCUUAUUUUGUGUUUUCCAUCCCUCUCCCUUAACAGGAUUGAAAUAAAACAUGCUUCUGUUUUUGUAAAAAUAAUUUUUCCUUUACACUGGAGAUUUUAUUCUAUCAGU,0.994
UUUCCUGUAAAACCAGUCUCAUUUGGGCUUCUCAUCUGUGCUCACCUUGAACCUACAAACCUCCAUGGACAGUCAGCAGGUGGGAAGACAUGGUGUUUGCCCAUAUCACU,0.247
GAAGAUAUUUAAUAUAUGAAACUCUCAUAACUGUCAUUAACAGUAUUAAUUAGGUCUAAAUACCGUGGAGCAGCCCUGAUAUCAUGCUGACAGCUUACGUGUCAGAGGGC,0.468
UUGUUGGUUGUUGUUGCAGAAGACUGAACUGUUUUGGAAUAUUUAACAAUUACAGAAACAGUCAAGUGUUUUCCAAUGUGGUUGUCCGGUUUCUAUGGCCUUGCUGUGUA,0.361
UUUUGUGCUAUUGUUUUAAAAAAUAAUAAUUAAAAAACAGUUGGCGUUAAUAAAAAUGUCAAUGUGAUUUGUUGGCCUGGUUCUUUCAGCUUUCUUGAAAGGAAACUAAA,0.317
CAGCAAAAACAGUGCCUCUUUGUGCACAAUCCUUUUAAAGUAGCAUUCUUACUUGUUAGAAAUGUAGAAUGAACUUUGUUUGUAAUCCUUAAAUUAAAAUGUGGUAAGUA,0.937
ACGGAUUGUUCAGCUUCAGACUGACAAAUGCCUUUCUCACAAGUUCCUGCUUCUUGCCGUGAUACUGUGCCCCAGAACAGCCUGGGGUCCCUGCUAGUUCCUGUCAAGGC,0.657
ACACUGGACUCCAAAGAGCAGGUGGAACAAACUCUGGCCUGAAGAUGAUGGCUAAUACUCAGGCAGAGCCCCGUAUUCUUCCCUGACUUGGUCAAAACAAACUUCCUUUU,0.57
CAUCAAUAUGUAAAAUUGUUGUUUUGGCUUUAUUUUGAACUCUGGGAGCAAAAGAAAAAUUUUUGUACAUUUUCUUCAUUUAAUCAGAAUGGUUUACAUAUUUCUGCAAA,1.14

# A few entries again (sample 4):
Oligonucleotide,RBNS enrichment (R)
ACAAGAGCAAAACUCCGUCUCAAAAAAAAAAAAAAGAUACAAAGUCUGCAUUUGAUAUAAUGCCUUAAUUACUGGGUCUACAAUUAAUGUUGACUGUUUUAGAUUGUAAG,0.527
CCCUUAUUUUGUGUUUUCCAUCCCUCUCCCUUAACAGGAUUGAAAUAAAACAUGCUUCUGUUUUUGUAAAAAUAAUUUUUCCUUUACACUGGAGAUUUUAUUCUAUCAGU,0.994
UUUCCUGUAAAACCAGUCUCAUUUGGGCUUCUCAUCUGUGCUCACCUUGAACCUACAAACCUCCAUGGACAGUCAGCAGGUGGGAAGACAUGGUGUUUGCCCAUAUCACU,0.247
GAAGAUAUUUAAUAUAUGAAACUCUCAUAACUGUCAUUAACAGUAUUAAUUAGGUCUAAAUACCGUGGAGCAGCCCUGAUAUCAUGCUGACAGCUUACGUGUCAGAGGGC,0.468
UUGUUGGUUGUUGUUGCAGAAGACUGAACUGUUUUGGAAUAUUUAACAAUUACAGAAACAGUCAAGUGUUUUCCAAUGUGGUUGUCCGGUUUCUAUGGCCUUGCUGUGUA,0.361
UUUUGUGCUAUUGUUUUAAAAAAUAAUAAUUAAAAAACAGUUGGCGUUAAUAAAAAUGUCAAUGUGAUUUGUUGGCCUGGUUCUUUCAGCUUUCUUGAAAGGAAACUAAA,0.317
